{"data": "Measured values of several laboratories", "note": "Parts stem from different laboratories: compare values within a part only.", "UniProt O94806, sequence (whole entry, looked up)": "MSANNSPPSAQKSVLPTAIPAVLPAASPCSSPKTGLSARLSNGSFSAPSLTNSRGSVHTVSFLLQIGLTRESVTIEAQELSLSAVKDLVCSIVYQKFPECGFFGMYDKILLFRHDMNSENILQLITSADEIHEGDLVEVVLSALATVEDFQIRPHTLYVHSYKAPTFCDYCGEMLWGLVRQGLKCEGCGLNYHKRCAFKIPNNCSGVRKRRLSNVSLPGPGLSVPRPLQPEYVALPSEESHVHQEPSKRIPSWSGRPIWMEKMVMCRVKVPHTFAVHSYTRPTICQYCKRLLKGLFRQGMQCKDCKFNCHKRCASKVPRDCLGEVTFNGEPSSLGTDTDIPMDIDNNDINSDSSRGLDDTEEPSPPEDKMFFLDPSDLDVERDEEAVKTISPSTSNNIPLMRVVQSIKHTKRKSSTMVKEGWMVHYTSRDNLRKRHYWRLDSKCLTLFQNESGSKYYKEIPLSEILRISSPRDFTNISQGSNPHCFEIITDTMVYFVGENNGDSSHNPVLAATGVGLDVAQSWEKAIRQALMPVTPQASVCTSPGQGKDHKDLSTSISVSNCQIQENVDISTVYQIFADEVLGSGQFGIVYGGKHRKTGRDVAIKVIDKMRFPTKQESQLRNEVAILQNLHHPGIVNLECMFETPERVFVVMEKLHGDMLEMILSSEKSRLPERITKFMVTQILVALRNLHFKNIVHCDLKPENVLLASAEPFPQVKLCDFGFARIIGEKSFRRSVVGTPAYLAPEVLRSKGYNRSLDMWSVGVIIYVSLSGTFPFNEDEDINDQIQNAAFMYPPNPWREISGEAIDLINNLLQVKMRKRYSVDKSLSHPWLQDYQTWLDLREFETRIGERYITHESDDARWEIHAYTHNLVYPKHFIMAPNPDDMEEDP", "UniProt Q14164, sequence (whole entry, looked up)": "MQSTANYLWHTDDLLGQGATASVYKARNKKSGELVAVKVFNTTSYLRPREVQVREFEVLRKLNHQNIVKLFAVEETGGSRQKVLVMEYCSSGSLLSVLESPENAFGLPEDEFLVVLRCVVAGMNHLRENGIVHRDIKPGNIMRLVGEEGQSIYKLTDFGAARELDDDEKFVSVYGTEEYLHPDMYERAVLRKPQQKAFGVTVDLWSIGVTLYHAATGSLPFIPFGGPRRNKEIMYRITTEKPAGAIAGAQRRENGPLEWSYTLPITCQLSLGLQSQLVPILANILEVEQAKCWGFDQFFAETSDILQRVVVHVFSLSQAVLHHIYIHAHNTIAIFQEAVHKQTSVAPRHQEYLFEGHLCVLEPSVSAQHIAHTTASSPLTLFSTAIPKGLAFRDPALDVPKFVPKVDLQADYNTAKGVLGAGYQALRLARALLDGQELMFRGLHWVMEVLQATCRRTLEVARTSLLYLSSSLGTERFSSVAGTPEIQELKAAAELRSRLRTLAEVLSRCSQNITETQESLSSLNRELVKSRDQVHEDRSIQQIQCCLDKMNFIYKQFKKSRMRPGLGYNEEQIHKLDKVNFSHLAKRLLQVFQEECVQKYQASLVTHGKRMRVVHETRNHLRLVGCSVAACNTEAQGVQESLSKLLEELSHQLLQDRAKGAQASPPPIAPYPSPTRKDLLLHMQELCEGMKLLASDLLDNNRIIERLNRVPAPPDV", "UniProt Q5S007, sequence (whole entry, looked up)": "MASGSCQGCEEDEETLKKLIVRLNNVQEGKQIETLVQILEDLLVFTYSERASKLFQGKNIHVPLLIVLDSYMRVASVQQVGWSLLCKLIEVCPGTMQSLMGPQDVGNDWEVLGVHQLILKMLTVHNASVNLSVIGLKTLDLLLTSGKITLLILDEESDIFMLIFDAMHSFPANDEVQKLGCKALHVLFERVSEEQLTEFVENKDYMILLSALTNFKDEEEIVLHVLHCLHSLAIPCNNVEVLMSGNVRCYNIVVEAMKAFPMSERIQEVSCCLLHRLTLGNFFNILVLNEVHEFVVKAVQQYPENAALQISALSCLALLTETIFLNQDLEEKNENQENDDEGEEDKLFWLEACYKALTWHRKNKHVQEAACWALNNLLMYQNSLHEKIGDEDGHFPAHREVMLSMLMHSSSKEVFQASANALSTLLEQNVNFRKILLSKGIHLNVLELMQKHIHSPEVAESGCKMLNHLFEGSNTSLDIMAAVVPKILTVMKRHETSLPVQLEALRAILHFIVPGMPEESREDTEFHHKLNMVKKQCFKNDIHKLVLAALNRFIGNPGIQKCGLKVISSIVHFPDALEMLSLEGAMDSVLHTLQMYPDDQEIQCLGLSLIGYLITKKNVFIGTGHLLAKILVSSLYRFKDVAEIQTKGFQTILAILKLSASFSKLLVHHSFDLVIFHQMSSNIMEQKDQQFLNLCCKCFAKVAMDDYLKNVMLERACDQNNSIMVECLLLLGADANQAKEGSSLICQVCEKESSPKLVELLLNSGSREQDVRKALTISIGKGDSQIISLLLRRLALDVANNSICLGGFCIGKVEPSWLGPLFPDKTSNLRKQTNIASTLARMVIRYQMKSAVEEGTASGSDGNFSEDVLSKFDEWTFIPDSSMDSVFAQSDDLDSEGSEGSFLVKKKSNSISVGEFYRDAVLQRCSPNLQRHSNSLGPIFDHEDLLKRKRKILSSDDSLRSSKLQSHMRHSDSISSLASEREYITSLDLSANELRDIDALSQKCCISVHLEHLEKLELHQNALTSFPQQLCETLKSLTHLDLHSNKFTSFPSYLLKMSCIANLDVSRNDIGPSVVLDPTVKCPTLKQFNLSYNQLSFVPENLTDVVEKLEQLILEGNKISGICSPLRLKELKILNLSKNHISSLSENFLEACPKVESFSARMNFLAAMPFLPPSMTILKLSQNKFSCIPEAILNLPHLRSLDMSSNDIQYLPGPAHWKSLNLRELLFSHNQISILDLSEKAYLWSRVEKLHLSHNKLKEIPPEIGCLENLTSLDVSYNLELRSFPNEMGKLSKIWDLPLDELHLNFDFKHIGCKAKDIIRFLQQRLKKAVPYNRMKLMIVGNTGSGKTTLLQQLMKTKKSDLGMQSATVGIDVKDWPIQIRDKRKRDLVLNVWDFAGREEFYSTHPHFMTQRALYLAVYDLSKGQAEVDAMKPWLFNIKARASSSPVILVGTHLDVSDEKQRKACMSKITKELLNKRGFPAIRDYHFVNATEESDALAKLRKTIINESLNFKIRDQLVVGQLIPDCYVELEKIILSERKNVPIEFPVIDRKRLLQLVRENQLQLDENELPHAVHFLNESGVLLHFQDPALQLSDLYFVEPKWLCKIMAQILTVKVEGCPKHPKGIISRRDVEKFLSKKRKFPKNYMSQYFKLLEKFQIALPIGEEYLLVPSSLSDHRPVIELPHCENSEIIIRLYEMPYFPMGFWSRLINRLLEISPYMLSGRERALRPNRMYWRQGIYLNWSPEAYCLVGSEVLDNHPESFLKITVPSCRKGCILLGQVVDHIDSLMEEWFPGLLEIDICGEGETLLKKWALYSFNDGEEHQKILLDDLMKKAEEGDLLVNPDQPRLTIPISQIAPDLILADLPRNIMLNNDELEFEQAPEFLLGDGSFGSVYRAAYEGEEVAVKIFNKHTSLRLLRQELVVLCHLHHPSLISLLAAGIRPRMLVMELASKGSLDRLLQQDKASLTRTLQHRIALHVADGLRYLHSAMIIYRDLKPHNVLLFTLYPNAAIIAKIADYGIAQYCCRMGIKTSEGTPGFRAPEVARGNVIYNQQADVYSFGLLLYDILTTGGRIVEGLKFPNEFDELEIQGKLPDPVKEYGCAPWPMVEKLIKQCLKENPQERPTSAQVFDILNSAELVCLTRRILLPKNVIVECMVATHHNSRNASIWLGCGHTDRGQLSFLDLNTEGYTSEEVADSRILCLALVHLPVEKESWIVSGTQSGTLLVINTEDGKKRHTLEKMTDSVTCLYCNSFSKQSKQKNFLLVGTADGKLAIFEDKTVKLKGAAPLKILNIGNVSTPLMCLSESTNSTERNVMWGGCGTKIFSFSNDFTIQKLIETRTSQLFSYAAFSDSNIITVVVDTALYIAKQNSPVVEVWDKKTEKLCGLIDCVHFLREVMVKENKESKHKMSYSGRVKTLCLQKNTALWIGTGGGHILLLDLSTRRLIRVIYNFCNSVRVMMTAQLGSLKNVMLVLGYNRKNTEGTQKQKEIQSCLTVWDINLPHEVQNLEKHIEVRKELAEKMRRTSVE"}
{"data": "Set 1", "SMILES": "Cc1sc(C(=O)NC2COC2)cc1-n1cc(NC(=O)Nc2c(F)cccc2Cl)cn1", "effect on": "enzyme activity", "tested at": "10 µM", "baseline": "untreated control"}
{"target": "Misshapen-like kinase 1 (MINK1, Homo sapiens, UniProt Q8N4C8)", "remaining activity [%]": 102}
{"target": "Cyclin-dependent kinase 7 (CDK7, Homo sapiens, UniProt P50613)", "remaining activity [%]": 102}
{"target": "Inhibitor of nuclear factor kappa-B kinase subunit epsilon (IKBKE, Homo sapiens, UniProt Q14164)", "remaining activity [%]": 115}
{"target": "Insulin receptor-related protein (INSRR, Homo sapiens, UniProt P14616)", "remaining activity [%]": 70.8}
{"target": "Leucine-rich repeat serine/threonine-protein kinase 2 (LRRK2, Homo sapiens, UniProt Q5S007)", "remaining activity [%]": 101}
{"target": "Serine/threonine-protein kinase D3 (PRKD3, Homo sapiens, UniProt O94806)", "remaining activity [%]": 102}
{"target": "cAMP-dependent protein kinase catalytic subunit PRKX (PRKX, Homo sapiens, UniProt P51817)", "remaining activity [%]": 79.1}
{"target": "Ribosomal protein S6 kinase beta-1 (RPS6KB1, Homo sapiens, UniProt P23443)", "remaining activity [%]": 91.1}
{"data": "Set 2", "target": "Bromodomain-containing protein 4, BD1 (BRD4, Homo sapiens, UniProt O60885)", "effect on": "acetyl-histone H4 peptide binding", "method": "AlphaScreen displacement", "tested at": "50 µM"}
{"Compound": "Cc1cc2ncc(-c3ccccc3)nc2cc1C", "inhibition": "-17.1%"}
{"Compound": "COc1cc2c(cc1OC)-c1[nH]nc(Nc3cccc(F)c3)c1C2", "inhibition": "64.2%"}
{"Compound": "O=c1c(-c2ccc(O)cc2)coc2cc(O)cc(O)c12.O=c1c(-c2ccc(O)cc2)coc2cc(O)cc(O)c12", "inhibition": "21.1%"}
{"Compound": "Nc1ccccc1NC(=O)CSc1nc2ccccc2s1", "inhibition": "17.9%"}
{"Compound": "O=C(O)c1cc(N(Cc2ccccc2O)Cc2cc(O)ccc2O)ccc1O", "inhibition": "30.7%"}
{"Compound": "COc1cc(/C=C/C(=O)CC(=O)/C=C/c2ccc(O)c(OC)c2)ccc1O.COc1cc(C=CC(=O)CC(=O)C=Cc2ccc(O)c(OC)c2)ccc1O", "inhibition": "75.2%"}
{"Compound": "O=C(NCc1ccco1)C(=O)c1cn(CC(=O)N2CCOCC2)c2ccccc12", "inhibition": "25%"}
{"Compound": "O=[N+]([O-])c1ccc(-c2cc(C(F)(F)F)[nH]n2)cc1", "inhibition": "23.2%"}
{"data": "Set 3", "Structure (SMILES)": "C=CCc1ccc(O)c(-c2ccc(O)c(CC=C)c2)c1", "ANO1 del476-501/F628A": "Anoctamin-1 (ANO1, Homo sapiens, UniProt Q5XXA6, del476-501/F628A)", "UniProt Q5XXA6, sequence (whole entry, unmodified, looked up)": "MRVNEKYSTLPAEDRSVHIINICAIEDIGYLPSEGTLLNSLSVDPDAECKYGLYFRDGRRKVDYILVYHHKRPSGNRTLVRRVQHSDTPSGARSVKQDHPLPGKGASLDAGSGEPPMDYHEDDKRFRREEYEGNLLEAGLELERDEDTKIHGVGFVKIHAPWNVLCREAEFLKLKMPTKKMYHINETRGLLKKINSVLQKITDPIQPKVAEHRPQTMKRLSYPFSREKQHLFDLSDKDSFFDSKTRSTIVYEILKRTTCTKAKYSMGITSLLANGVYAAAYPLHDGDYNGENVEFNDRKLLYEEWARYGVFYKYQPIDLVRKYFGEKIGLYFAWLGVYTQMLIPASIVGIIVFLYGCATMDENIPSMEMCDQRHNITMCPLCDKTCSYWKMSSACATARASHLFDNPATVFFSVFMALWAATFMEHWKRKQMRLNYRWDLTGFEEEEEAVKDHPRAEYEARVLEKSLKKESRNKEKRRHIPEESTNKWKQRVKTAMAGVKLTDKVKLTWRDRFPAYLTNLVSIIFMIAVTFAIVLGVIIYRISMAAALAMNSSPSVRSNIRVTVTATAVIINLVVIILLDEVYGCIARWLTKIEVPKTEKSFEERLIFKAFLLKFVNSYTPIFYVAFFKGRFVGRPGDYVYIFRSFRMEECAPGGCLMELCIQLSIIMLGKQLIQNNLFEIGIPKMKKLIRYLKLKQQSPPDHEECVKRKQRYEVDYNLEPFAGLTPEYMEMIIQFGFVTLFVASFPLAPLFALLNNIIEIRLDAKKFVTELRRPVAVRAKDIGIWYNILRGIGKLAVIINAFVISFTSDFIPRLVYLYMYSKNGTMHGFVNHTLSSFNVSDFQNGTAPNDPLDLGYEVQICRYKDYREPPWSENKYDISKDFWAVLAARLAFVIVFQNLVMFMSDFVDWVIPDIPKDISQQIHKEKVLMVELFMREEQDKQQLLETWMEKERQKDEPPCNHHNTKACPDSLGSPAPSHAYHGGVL"}
{"target": "ANO1 del476-501/F628A", "assay": "chloride current, whole-cell voltage clamp", "conditions": "3 µM, I-V at 20 mV, with: 4 µM Ca2+", "normalized current": 0.138}
{"target": "Anoctamin-1 (ANO1, Homo sapiens, UniProt Q5XXA6, del476-501/F807A)", "assay": "chloride current, inhibitor, whole-cell voltage clamp", "conditions": "30 µM", "how to read": "baseline: untreated", "normalized current": 0.343}
{"target": "Anoctamin-1 (ANO1, Homo sapiens, UniProt Q5XXA6, del476-501/E649A)", "assay": "ion current, inside-out patch clamp", "conditions": "10 µM, E623A mutant at 80 mV", "normalized current": 0.63}
{"target": "Anoctamin-1 (ANO1, Homo sapiens, UniProt Q5XXA6, del476-501/R541A)", "assay": "chloride current, inside-out patch clamp", "conditions": "10 µM, membrane voltage 20 mV", "normalized current": 0.118}
{"target": "ANO1 del476-501/F628A", "assay": "chloride current, whole-cell voltage clamp", "conditions": "10 µM, I-V at 60 mV, with: 4 µM Ca2+", "normalized current": 0.389}
{"target": "Anoctamin-1 (ANO1, Homo sapiens, UniProt Q5XXA6, del476-501)", "assay": "chloride current, whole-cell voltage clamp", "conditions": "1 µM, wild type, concentration-response at -80 mV, with: 4 µM Ca2+", "normalized current": -0.637}
{"target": "ANO1 del476-501/F628A", "assay": "chloride current, whole-cell voltage clamp", "conditions": "100 µM, concentration-response at -100 mV, with: 4 µM Ca2+", "normalized current": -0.132}
{"target": "ANO1 del476-501/F628A", "assay": "chloride current, whole-cell voltage clamp", "conditions": "30 µM, concentration-response at 20 mV, with: 4 µM Ca2+", "normalized current": 0.1}
{"data": "Other studies, line by line"}
{"Compound": "CC(C)(C)c1nc(-c2cccc(NS(=O)(=O)c3c(F)cccc3F)c2F)c(-c2ccnc(N)n2)s1", "cell line": "L929", "effect on": "necroptosis protection", "method": "CCK-8", "tested at": "25 µM", "with": "TNF-α-induced", "measurement": "viability", "result": "71.8%"}
{"note": "For quick reference, copied from above (set 2):"}
{"Compound": "Cc1cc2ncc(-c3ccccc3)nc2cc1C", "inhibition": "-17.1%"}
{"Compound": "COc1cc2c(cc1OC)-c1[nH]nc(Nc3cccc(F)c3)c1C2", "inhibition": "64.2%"}
